Published values collected from several papers.
A part holds a random share of what one study measured. Changes are numbered by the printed parent chain.

Study 1
Target: Sal-like protein 4, full length isoform A (SALL4, Homo sapiens, UniProt Q9UJQ4, residues 1-1053)
Chain of UniProt Q9UJQ4 (whole entry, looked up): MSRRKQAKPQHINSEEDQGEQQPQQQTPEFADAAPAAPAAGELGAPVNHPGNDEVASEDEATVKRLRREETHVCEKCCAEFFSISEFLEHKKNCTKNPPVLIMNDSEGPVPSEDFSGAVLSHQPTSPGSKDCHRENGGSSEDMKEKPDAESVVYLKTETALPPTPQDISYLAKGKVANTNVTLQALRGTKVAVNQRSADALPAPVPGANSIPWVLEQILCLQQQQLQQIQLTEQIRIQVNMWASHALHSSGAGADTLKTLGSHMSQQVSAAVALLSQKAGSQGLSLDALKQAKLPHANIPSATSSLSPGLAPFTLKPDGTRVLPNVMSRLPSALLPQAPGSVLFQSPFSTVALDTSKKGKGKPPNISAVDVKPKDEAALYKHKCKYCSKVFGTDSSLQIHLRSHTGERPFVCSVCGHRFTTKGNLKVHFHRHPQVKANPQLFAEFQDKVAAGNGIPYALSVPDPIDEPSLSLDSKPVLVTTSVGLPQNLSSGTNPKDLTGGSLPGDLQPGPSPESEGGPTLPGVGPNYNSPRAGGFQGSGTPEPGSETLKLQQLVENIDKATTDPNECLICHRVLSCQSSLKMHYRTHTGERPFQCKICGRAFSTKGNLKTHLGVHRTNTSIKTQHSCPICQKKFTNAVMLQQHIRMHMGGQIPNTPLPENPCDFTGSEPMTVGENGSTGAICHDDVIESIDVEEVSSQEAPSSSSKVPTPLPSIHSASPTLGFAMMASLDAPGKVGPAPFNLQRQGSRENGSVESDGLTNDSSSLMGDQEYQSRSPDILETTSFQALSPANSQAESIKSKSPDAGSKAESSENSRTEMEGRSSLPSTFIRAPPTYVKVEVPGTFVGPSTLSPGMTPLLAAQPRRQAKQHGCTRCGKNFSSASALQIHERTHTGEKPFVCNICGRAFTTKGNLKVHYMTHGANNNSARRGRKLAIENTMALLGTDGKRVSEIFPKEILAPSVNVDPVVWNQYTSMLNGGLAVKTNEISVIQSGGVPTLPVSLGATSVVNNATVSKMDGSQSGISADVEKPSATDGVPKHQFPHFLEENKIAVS
Technique: universal PBM
Form: double-stranded DNA, one strand shown
Sample: in vitro
Concentration: 600 nM
Setting: 8-mer, flanks averaged, mean of replicates
Reading: higher = stronger binding
The E-score of `ACAACAAA` is reported as 0.154.
`CCCCCCCG` gave an E-score of -0.46.
For `ATCCGTCG`, the E-score was -0.102.
`ATTTTCCC` gave an E-score of 0.162.
The E-score of `GACCCTTA` is reported as 0.077.
For `GTAACACA`, the E-score was 0.174.
For `GTGGTTGA`, the E-score was -0.0545.
The E-score of `ACACGACC` is reported as -0.164.
For `GCAGGGTA`, the E-score was -0.0262.
`AGCCACCT` gave an E-score of -0.237.
With `AAGCAGTG` the E-score was -0.139.
The E-score of `CGAAGGAC` is reported as -0.185.
For `GCCATCAA`, the E-score was -0.0416.
With `CAATTCAC` the E-score was 0.242.
For `AGGCTTAC`, the E-score was -0.177.
For `AGGAGCCG`, the E-score was -0.293.
The E-score of `AGAAATAC` is reported as 0.101.
For `ACATCTAA`, the E-score was 0.225.
`GTGCTTGA` gave an E-score of 0.111.
For `CAGCATGC`, the E-score was -0.188.
With `TCAAGACA` the E-score was 0.02.
The E-score of `CATCCGAA` is reported as 0.00905.
`CTGCAACA` has an E-score of 0.0188.
`GACGGTGA` has an E-score of -0.145.
With `CATATTAG` the E-score was 0.283.

Study 2
Target: CCNB3, cyclin fold, Cln2 fusion (human)
Technique: yeast growth competition, sequencing
Sample: yeast
Setting: weak parent motif
Reference: not given
Reading: higher = stronger binding
Starting sequence: CDKN1B docking peptide (human); PSACRNLFGPVDH; partner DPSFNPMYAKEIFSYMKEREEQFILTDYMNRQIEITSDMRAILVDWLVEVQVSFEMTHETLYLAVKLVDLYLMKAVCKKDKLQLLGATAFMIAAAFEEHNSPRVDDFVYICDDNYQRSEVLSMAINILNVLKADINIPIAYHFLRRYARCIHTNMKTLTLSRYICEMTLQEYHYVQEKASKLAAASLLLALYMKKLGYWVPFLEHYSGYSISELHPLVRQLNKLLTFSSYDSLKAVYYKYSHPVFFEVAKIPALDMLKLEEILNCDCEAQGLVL
For `L7V`, “normalised enrichment score” read 0.458.
Under “normalised enrichment score”, `P1T` is recorded as 0.46.
Under “normalised enrichment score”, `F8K` is recorded as 0.118.
`C4M` — result for “normalised enrichment score”: -0.144.
Under “normalised enrichment score”, `D12G` is recorded as 0.581.
Under “normalised enrichment score”, `C4F` is recorded as 0.307.
`V11L`: “normalised enrichment score” 0.276.
`N6D`: “normalised enrichment score” 0.429.
For `P10S`, “normalised enrichment score” read 0.311.
Under “normalised enrichment score”, `V11R` is recorded as 0.293.
Under “normalised enrichment score”, `D12T` is recorded as 0.451.
Under “normalised enrichment score”, `L7D` is recorded as 0.227.
For `H13P`, “normalised enrichment score” read 0.616.
For `H13G`, “normalised enrichment score” read 0.307.
Under “normalised enrichment score”, `S2E` is recorded as 0.343.
Under “normalised enrichment score”, `A3L` is recorded as 0.694.
`H13Y` — result for “normalised enrichment score”: 0.305.
Under “normalised enrichment score”, `P10V` is recorded as 0.0438.
`F8E`: “normalised enrichment score” -0.0525.
`H13K` — result for “normalised enrichment score”: 0.545.
`F8S`: “normalised enrichment score” 0.261.
`S2Q`: “normalised enrichment score” 0.297.
`C4Y` — result for “normalised enrichment score”: 0.145.
`P1E` — result for “normalised enrichment score”: 0.189.

Study 3
Target: UBE2C UBC core domain (UniProt O00762)
Technique: yeast two-hybrid
Sample: yeast
Setting: mostly zero background
Reference: not given
Reading: higher = stronger interaction
B1: RC3H1 RING domain (UniProt Q5TC82); chain QAPQWTDFLSCPICTQTFDETIRKPISLGCGHTVCKMCLNKLHRKACPFDQTTINTDIELL
B2: RNF38 RING domain (UniProt Q9H0F5); chain PNNHQSEQTLCVVCMCDFESRQLLRVLPCNHEFHAKCVDKWLKANRTCPICRADASEVHRDS
B3: SH3RF2 RING domain (UniProt Q8TEC5); chain DDLTLLDLLECPVCFEKLDVTAKVLPCQHTFCKPCLQRVFKAHKELRCPECRTPVFSNIEAL
B4: RNF111 RING domain (UniProt Q6ZNA4); chain EGTEEDTEEKCTICLSILEEGEDVRRLPCMHLFHQVCVDQWLITNKKCPICRVDIEAQLPSE
B5: RNF208 RING domain (UniProt Q9H0X6); chain SSAAAGEPLECPTCGHSYNVTQRRPRVLSCLHSVCEQCLQILYESCPKYKFISCPTCRRETVLFTDYG
B6: VPS41 RING domain (UniProt P49754); chain KGVLVDEENICESCLSPILPSDAAKPFSVVVFHCRHMFHKECLPMPSMNSAAQFCNICSAKNRGPGSAI
B7: TRIML1 RING domain (UniProt Q8N9V2); chain LMENLREELTCFICLDYFSSPVTTECGHSFCLVCLLRSWEEHNTPLSCPECWRTLEGPHFQS
B8: TRIM5 RING domain (UniProt Q9C035); chain LREVKLSPEGQKVDHCARHGEKLLLFCQEDGKVICWLCERSQEHRGHHTFLTEEVAREYQVKL
B9: TRIM5 RING domain (UniProt Q9C035); chain ILVNVKEEVTCPICLELLTQPLSLDCGHSFCQACLTANHKKSMLDKGESSCPVCRISYQPENIRP
B10: NEURL1 RING domain (UniProt O76050); chain VTPGLGQWSDECTICYEHAVDTVIYTCGHMCLCYACGLRLKKALHACCPICRRPIKDIIKT
Target sequence (chain): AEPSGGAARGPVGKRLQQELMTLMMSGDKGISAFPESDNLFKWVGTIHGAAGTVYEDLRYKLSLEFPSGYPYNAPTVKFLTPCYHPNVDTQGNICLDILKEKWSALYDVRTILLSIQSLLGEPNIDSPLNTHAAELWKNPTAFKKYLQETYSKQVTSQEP
For `B1 (RC3H1 RING domain)`, “lacZ reporter activity” read 0.
Under “lacZ reporter activity”, `QVDKAVFHMQSVKCLKCQEQKRAVLPCQHAALCELCAEGSECPICQPGRAHTLQS (UNK RING domain (UniProt Q9C0B0))` is recorded as 0.
`PAELEVQASECVVCLEREAQMIFLNCGHVCCCQQCCQPLRTCPLCRQDIAQRLRIY (LRSAM1 RING domain (UniProt Q6UWE0))` — result for “lacZ reporter activity”: 0.
For `B2 (RNF38 RING domain)`, “lacZ reporter activity” read 0.
Under “lacZ reporter activity”, `B3 (SH3RF2 RING domain)` is recorded as 0.
`B4 (RNF111 RING domain)`: “lacZ reporter activity” 0.
`B5 (RNF208 RING domain)` — result for “lacZ reporter activity”: 0.
For `B6 (VPS41 RING domain)`, “lacZ reporter activity” read 0.
Under “lacZ reporter activity”, `B7 (TRIML1 RING domain)` is recorded as 0.
For `B8 (TRIM5 RING domain)`, “lacZ reporter activity” read 0.
Under “lacZ reporter activity”, `B9 (TRIM5 RING domain)` is recorded as 0.
`B10 (NEURL1 RING domain)` — result for “lacZ reporter activity”: 0.
For `GAAPGPEAAECLVCSELALLVLFSPCQHRTVCEECARRMKKCIRCQVVVSKKLRPD (MIB2 RING domain (UniProt Q96AX9))`, “lacZ reporter activity” read 0.

Study 4
Target: RING finger protein unkempt homolog, zinc fingers 1-6, GST-SBP tag (UNK, Homo sapiens, UniProt Q9C0B0, residues 30-357)
Technique: RNA Bind-n-Seq
Form: RNA
Sample: in vitro
Concentration: not given
Setting: RNA with constant flanks, human-mouse chimeric sites, ends assumed
Reference: input RNA pool
Reading: higher = stronger binding
For `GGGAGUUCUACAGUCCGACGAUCGAUCAUGAACCACCAUCAGAAAUGAAGAUGAGAUUACCCAAGACGAGCAAAACAGCUGCGCUACAGAAAAGUAAACUUAACCUUGCAGAGUUCCUUAAUGAAGAUACAAGUUAAGAGAGCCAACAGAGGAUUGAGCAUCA`, the bound/input enrichment was 0.324 ratio.
`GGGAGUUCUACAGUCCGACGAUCCAGCUGCAGACAGAAAAGGAUGAGAAGGAGCUGUAUAAGGUACAUUUGAAGAAUACAGAAAUAGAAAAUACGAAGCUUGUGUCAGAGAUACAGACUUUAAAAAAUUUAGAUGGAAACAAACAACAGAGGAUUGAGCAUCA` gave a bound/input enrichment of 2.94 ratio.
`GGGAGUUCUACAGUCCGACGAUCUCAUUUUGCUCGGGUUAUUCUUUCCUUAAAAGCCUAACUAAAGAUUAGGUUGUAAGAAAAACAGAAGCCAUGUUUCGAAGACCUGUGUUACAGGUAUUUCGUCAGUUUGUAAGACAUGAGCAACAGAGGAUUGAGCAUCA` gave a bound/input enrichment of 0.226 ratio.
With `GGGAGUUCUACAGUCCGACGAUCAAAGCCCAAGUAUUUUGAAAAAACUCGAACAGAUUUGUCAAGGGUAACCAGCUUGGAGUCUAGCAACUUUGCCAAUGGUUUACCAAUCUGGGGGCUUGUUUUUCUUUUCUUCUUUCAAAUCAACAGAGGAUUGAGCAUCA` the bound/input enrichment was 0.259 ratio.
For `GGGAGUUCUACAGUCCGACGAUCCUGAGGAUACCACUGAAGAGACCUUAAAAGAAUCAUUUGAGGGCUCUGUUCGUGCAAGAAUAGUCACUGAUCGGGAAAACUGGGUCCUCCAAAGGGUUGGUUUUGUAGACUUUAAUAGUGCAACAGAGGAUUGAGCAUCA`, the bound/input enrichment was 1.26 ratio.
For `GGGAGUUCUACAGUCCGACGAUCGUUGCCAGCUUCCGGUUCCGUUGGGCUCGGUUCUCUCCUGAGCUACGGUCCCUGGCACUCUCAAUCCGCCAUCCAACAAACAUGGAUCAGGUAAUGCAGUUUGUGGAGCCCAGCCGGCAGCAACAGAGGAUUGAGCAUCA`, the bound/input enrichment was 0.128 ratio.
For `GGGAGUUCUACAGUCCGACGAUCGUGACUGACAUUAAAAUUUCCCCUCAGCAAAGAAGUGCAGUAGUCACCAUAAUUCCAUCUGUGGUGAGUGCCAGUCAGAUAAAAGAGCUGGUCCCAGACCUCAGUUUAGACAUGGGAACUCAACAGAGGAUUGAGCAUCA`, the bound/input enrichment was 0.356 ratio.
With `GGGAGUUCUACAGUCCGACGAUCCUGAGGAUACCACUGAAGAGACCUUAAAAGAAUCAUUUGAGGGCUCUGUUCGUGCAAGAAUAGUCACUGAUCGGGAAAACUGGGUCCCCAAAGGGUUUUGGUUUUGUGACUUUAAUAGUGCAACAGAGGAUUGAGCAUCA` the bound/input enrichment was 0.353 ratio.

Study 5
Target: JDP2, bZIP domain (human)
Technique: DHFR protein complementation
Sample: yeast
Setting: single substitutions, most at no-binding floor
Reference: wild-type JUN-FOS pair
Reading: higher = stronger binding
Starting sequence: JUN, bZIP domain (human); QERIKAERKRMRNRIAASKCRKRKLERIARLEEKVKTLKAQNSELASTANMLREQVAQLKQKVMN; partner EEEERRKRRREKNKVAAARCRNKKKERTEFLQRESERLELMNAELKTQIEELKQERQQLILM
`E44Q` has a binding fitness of 0.262 natural log.
`V35N` has a binding fitness of 0.172 natural log.
`V56T` gave a binding fitness of 0.148 natural log.
The binding fitness of `A40R` is reported as 0.247 natural log.
`L59R` gave a binding fitness of -0.341 natural log.
`A49Y` gave a binding fitness of 0.23 natural log.
`L52M` has a binding fitness of 0.15 natural log.
For `K39W`, the binding fitness was 0.244 natural log.
With `R30K` the binding fitness was 0.181 natural log.
`A40W` gave a binding fitness of 0.237 natural log.
`L59S` gave a binding fitness of -0.17 natural log.
`K34D` gave a binding fitness of 0.265 natural log.
`K39D` gave a binding fitness of 0.302 natural log.
With `L52A` the binding fitness was -0.108 natural log.
For `L38P`, the binding fitness was -1.08 natural log.
With `Q55Y` the binding fitness was 0.173 natural log.
`V56K` gave a binding fitness of -0.356 natural log.
